Published values gathered from unrelated publications.
Numbers after ± are the reported error.
OPRL1: Nociceptin receptor (OPRL1, Homo sapiens, UniProt P41146)
rep R3428I 3C-like proteinase: Replicase polyprotein 1ab, 3C-like proteinase (rep, Severe acute respiratory syndrome-related coronavirus, UniProt P0C6X7, R3428I)
N/L: N/L (Lymphocytic choriomeningitis virus, UniProt P09992+P14240)

Chains of the proteins cited; added tags and fusions are not shown. Residues count along the entry.
UniProt P41146, whole entry: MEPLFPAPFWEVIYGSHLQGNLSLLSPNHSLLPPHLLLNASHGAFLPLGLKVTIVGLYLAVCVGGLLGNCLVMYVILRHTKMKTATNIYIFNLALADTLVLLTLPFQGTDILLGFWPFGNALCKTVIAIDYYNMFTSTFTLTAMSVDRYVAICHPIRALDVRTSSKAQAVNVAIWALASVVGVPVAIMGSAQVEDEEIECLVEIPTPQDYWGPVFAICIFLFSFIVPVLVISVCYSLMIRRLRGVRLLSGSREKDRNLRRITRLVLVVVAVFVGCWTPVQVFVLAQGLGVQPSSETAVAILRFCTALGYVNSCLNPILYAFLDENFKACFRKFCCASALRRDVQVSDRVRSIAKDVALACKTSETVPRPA
UniProt P41144, whole entry: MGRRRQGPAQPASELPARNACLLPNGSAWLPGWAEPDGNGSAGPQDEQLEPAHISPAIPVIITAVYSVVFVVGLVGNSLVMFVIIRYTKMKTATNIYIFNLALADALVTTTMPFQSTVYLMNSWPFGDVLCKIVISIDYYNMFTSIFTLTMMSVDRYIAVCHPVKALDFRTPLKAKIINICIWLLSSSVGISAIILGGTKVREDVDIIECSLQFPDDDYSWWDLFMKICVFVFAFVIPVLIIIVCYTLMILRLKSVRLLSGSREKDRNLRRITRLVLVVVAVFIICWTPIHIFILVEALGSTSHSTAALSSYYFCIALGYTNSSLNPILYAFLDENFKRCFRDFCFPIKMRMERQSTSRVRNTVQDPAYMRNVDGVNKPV
UniProt Q8N3R9, 256-336 F318W limits assumed: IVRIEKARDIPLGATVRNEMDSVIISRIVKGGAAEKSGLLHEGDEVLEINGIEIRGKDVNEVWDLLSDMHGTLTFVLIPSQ
UniProt P35372, whole entry: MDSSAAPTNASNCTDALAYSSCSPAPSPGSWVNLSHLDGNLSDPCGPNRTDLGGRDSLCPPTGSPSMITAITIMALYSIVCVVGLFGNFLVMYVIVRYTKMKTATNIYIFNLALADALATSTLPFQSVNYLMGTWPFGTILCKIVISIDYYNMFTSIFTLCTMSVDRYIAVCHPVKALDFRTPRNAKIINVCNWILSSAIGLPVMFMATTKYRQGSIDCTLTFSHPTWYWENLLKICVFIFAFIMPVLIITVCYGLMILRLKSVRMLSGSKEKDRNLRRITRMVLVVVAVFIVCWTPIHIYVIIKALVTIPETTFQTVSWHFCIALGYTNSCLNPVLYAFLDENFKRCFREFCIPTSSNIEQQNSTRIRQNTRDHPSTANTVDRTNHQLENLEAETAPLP
UniProt O75469, whole entry: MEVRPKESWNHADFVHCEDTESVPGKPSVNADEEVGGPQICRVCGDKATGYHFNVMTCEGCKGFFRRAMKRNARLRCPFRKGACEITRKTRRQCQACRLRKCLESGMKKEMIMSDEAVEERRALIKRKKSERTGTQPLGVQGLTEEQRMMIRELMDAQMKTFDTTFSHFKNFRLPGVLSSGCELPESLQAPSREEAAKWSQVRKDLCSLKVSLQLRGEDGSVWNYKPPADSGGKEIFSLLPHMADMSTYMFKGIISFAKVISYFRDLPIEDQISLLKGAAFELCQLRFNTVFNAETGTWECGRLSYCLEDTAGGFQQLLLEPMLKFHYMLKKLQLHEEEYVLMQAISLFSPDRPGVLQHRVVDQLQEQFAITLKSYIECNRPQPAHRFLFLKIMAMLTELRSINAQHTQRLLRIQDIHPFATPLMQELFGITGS

Structure (SMILES) | tested on | test | test system | setting | measurement | value
CCC1C(=O)N(C2CCN(Cc3cccc4[nH]ccc34)CC2)c2ccccc21 (stereo not drawn) | OPRK1 (Homo sapiens, UniProt P41145) | radioligand displacement | – | together with: tritiated U-69593 | Ki | 0.0128 ± 0.0016 µM
NC(=O)c1cccc2c1-c1ccccc1C2=O | Ricin, A chain (Ricinus communis, UniProt P02879) | binding, SPR | – | – | Kd | 153 µM
CCC1C(=O)N(C2CCN(C3CCc4ccccc4C3)CC2)c2ccccc21 (stereo not drawn) | OPRL1 | agonist | cell membranes | – | EC50 | 0.0279 ± 0.0171 µM
O=C(/C=C/c1ccccc1)N[C@H](COC(=O)/C=C/c1ccccc1)C(=O)NC1CCCCC1 | rep R3428I 3C-like proteinase | enzyme activity, inhibitor, HPLC substrate depletion | – | pH 4.0 | IC50 | 340 µM
NC12CC3CC(CC(C3)C1)C2 | Influenza A virus | viral replication | MDCK, A/Swine/Iowa/9-0814/2009 (H1N1) | – | EC50 | ≤ 100 µM
COc1cccc(/C=C/C(=O)N[C@H](COC(=O)c2ccccc2)C(=O)NC2CCCCC2)c1 | rep R3428I 3C-like proteinase | enzyme activity, inhibitor, HPLC substrate depletion | – | pH 4.0 | IC50 | 85 µM
N=C(N)NCC(=O)NCC1(Nc2cccc3ccccc23)CCN(Cc2ccccc2)CC1 | OPRK1 (Homo sapiens, UniProt P41145) | binding | HEK293 membranes | together with: [3H]U-69,593 | Ki | 3.68 ± 0.53 µM
O=CN1CC[C@]23c4c5ccc(O)c4O[C@H]2[C@@H](O)C=C[C@H]3[C@H]1C5 | OPRK1 (Cavia porcellus, UniProt P41144) | antagonist | guinea pig ileum | – | Kb | 1.89 ± 0.3 µM
COc1cc(/C=C/C(=O)N[C@@H](COC(=O)c2ccccc2)C(=O)NC2CCCCC2)cc(OC)c1 | rep R3428I 3C-like proteinase | enzyme activity, inhibitor, HPLC substrate depletion | – | pH 4.0 | IC50 | 100 µM
Cc1cc(N)c2ccccc2[n+]1CCCCCCCCCC[n+]1c(C)cc(N)c2ccccc21 | N/L | viral replication, Gaussia luciferase reporter | – | – | EC50 | 1.09 µM
CCC1C(=O)N(C2CCN(CCCc3ccccc3)CC2)c2ccccc21 (stereo not drawn) | OPRL1 | agonist | cell membranes | – | EC50 | 0.0722 ± 0.0194 µM
CO/C=C(/C(=O)OC)c1ccccc1Oc1cc(Oc2ccccc2C#N)ncn1 | N/L | viral replication, Gaussia luciferase reporter | – | – | EC50 | 4.98 µM
CC(=O)N[C@H](C(=O)N[C@@H](CC(C)C)C(=O)N[C@@H](C[C@@H]1CCNC1=O)C(=O)c1nccs1)C(C)C | rep R3428I 3C-like proteinase | enzyme activity, inhibitor, HPLC | – | 60 min, 37 °C, together with: substrate 111 µM | IC50 | 24 µM
CC(C)C[C@H](NC(=O)[C@H](CC(N)=O)NC(=O)[C@@H](N)CCCCN)C(=O)N[C@@H](CC(N)=O)C(=O)N[C@@H](CO)C(=O)N[C@@H](CO)C(=O)N[C@@H](CCC(=O)O)C(=O)NCC(=O)N[C@H](C(=O)N1CCC[C@H]1C(=O)N[C@@H](CC(=O)O)C(=O)N[C@@H](CC(C)C)C(=O)N[C@@H](CC(C)C)C(=O)N[C@H](C(=O)O)C(C)C)C(C)C | Protein PALS1 (PALS1, Homo sapiens, UniProt Q8N3R9, F318W) | SPR | – | pH 7.4, 25 °C, together with: PALS1 PDZ F318W | Kd | 69 ± 7 µM
CCC1C(=O)N(C2CCN([C@H]3CC[C@@H]4CCCc5cccc3c54)CC2)c2ccccc21 (relative stereo) | OPRM1 (Homo sapiens, UniProt P35372) | agonist | cell membranes | – | EC50 | 0.0569 ± 0.0193 µM
O=S(=O)(CCCn1cc(CCNS(=O)(=O)c2ccc(Br)cc2Cl)nn1)Nc1ccc(Nc2ccc(C(F)(F)F)nn2)cc1 | UDP-N-acetylglucosamine 2-epimerase (Bacillus anthracis, UniProt A0A348ACF3, N370A) | isothermal titration calorimetry | – | – | Kd | 0.1 µM
CCC1C(=O)N(C2CCN(C3CCCc4ccccc43)CC2)c2ccccc21 (stereo not drawn) | OPRL1 | agonist | cell membranes | – | EC50 | 0.0502 ± 0.0088 µM
O=C(/C=C/c1ccccc1)N[C@@H](COC(=O)Cc1ccccc1)C(=O)NC1CCCCC1 | rep R3428I 3C-like proteinase | enzyme activity, inhibitor, HPLC substrate depletion | – | pH 4.0 | IC50 | 650 µM
O=C1Cc2ccccc2N1C1CCN([C@@H]2CC[C@@H]3CCCc4cccc2c43)CC1 | OPRK1 (Homo sapiens, UniProt P41145) | radioligand displacement | – | together with: tritiated U-69593 | Ki | 0.814 ± 0.0356 µM
CC(C)OP(=S)(OC(C)C)SCCNS(=O)(=O)c1ccccc1 | NR1I2 (Homo sapiens, UniProt O75469) | reporter gene, agonist | HepG2 | 24 h, qHTS primary screen | EC50 | 5.4 µM
CN(C)[C@]1(c2ccccc2)CC[C@]2(CC1)OCCc1c3cc(F)ccc3[nH]c12 | OPRK1 (Homo sapiens, UniProt P41145) | binding | CHO cell membranes | – | Kd | 0.448 µM
CCC1C(=O)N(C2CCN(C(C)CC(c3ccccc3)c3ccccc3)CC2)c2ccccc21 (stereo not drawn) | OPRL1 | radioligand displacement | – | together with: [3H]N/OFQ | Ki | > 10 µM
O=C(/C=C/c1ccccc1)N[C@H](COC(=O)c1ccncc1)C(=O)NC1CCCCC1 | rep R3428I 3C-like proteinase | enzyme activity, inhibitor, HPLC substrate depletion | – | pH 4.0 | IC50 | 210 µM
CN(C)[C@]1(c2ccccc2)CC[C@]2(CC1)OCCc1c3cc(F)ccc3[nH]c12 | OPRK1 (Homo sapiens, UniProt P41145) | cAMP, agonist | – | human receptor | EC50 | 0.166 ± 0.0679 µM

For quick reference, copied from above:
Structure (SMILES) | tested on | test | test system | setting | measurement | value
CC(C)C[C@H](NC(=O)[C@H](CC(N)=O)NC(=O)[C@@H](N)CCCCN)C(=O)N[C@@H](CC(N)=O)C(=O)N[C@@H](CO)C(=O)N[C@@H](CO)C(=O)N[C@@H](CCC(=O)O)C(=O)NCC(=O)N[C@H](C(=O)N1CCC[C@H]1C(=O)N[C@@H](CC(=O)O)C(=O)N[C@@H](CC(C)C)C(=O)N[C@@H](CC(C)C)C(=O)N[C@H](C(=O)O)C(C)C)C(C)C | Protein PALS1 (PALS1, Homo sapiens, UniProt Q8N3R9, F318W) | SPR | – | pH 7.4, 25 °C, together with: PALS1 PDZ F318W | Kd | 69 ± 7 µM
CCC1C(=O)N(C2CCN(C3CCc4ccccc4C3)CC2)c2ccccc21 (stereo not drawn) | OPRL1 | agonist | cell membranes | – | EC50 | 0.0279 ± 0.0171 µM
